Published values from different studies.
Each line is one published result; not all experiments were run side by side. Numbers after ± are the reported error.

Structure (SMILES)	assay	test system	setting	Tmax
CC(C)C[C@@H]1NC(=O)[C@@H](Cc2c[nH]c3ccccc23)NC(=O)[C@H](CCCNC(=N)N)NC(=O)[C@@H](CCC(=O)O)NC(=O)[C@H](CCC(N)=O)NC(=O)[C@@H](CCC(=O)O)NC(=O)[C@H](CCCNC(=N)N)NC(=O)[C@@H](Cc2c[nH]c3ccccc23)NC1=O	–	C57BL/6 mouse, plasma	subcutaneous, 7.5 mg/kg, acetate buffer pH 4 vehicle	30 min
CCOc1ccccc1-n1c(CN2CCNCC2)nc2ccccc2c1=O	–	C57BL/6 mouse, male, plasma	intraperitoneal, 3 mg/kg	15 min
CC[C@H](C)[C@H](NC(=O)[C@H](Cc1ccccc1)NC(=O)[C@H](CCC(=O)O)NC(=O)[C@H](CCCCN)NC(=O)[C@H](C)NC(=O)[C@H](C)NC(=O)[C@H](CCC(N)=O)NC(=O)CNC(=O)[C@H](CCC(=O)O)NC(=O)[C@H](CC(C)C)NC(=O)[C@H](Cc1ccc(O)cc1)NC(=O)[C@H](CO)NC(=O)[C@H](CO)NC(=O)[C@@H](NC(=O)[C@H](CC(=O)O)NC(=O)[C@H](CO)NC(=O)[C@@H](NC(=O)[C@H](Cc1ccccc1)NC(=O)[C@@H](NC(=O)CNC(=O)[C@H](CCC(=O)O)NC(=O)CNC(=O)[C@@H](N)Cc1c[nH]cn1)[C@@H](C)O)[C@@H](C)O)C(C)C)C(=O)N[C@@H](C)C(=O)N[C@@H](Cc1c[nH]c2ccccc12)C(=O)N[C@@H](CC(C)C)C(=O)N[C@H](C(=O)N[C@@H](CCCCN)C(=O)NCC(=O)N[C@@H](CCCNC(=N)N)C(=O)N[C@@H](CSC1CC(=O)N(CCC(=O)NCCCCC(NC(=O)CCN2C(=O)CC(SC[C@H](NC(=O)[C@H](CCCNC(=N)N)NC(=O)CNC(=O)[C@H](CCCCN)NC(=O)[C@@H](NC(=O)[C@H](CC(C)C)NC(=O)[C@H](Cc3c[nH]c4ccccc34)NC(=O)[C@H](C)NC(=O)[C@@H](NC(=O)[C@H](Cc3ccccc3)NC(=O)[C@H](CCC(=O)O)NC(=O)[C@H](CCCCN)NC(=O)[C@H](C)NC(=O)[C@H](C)NC(=O)[C@H](CCC(N)=O)NC(=O)CNC(=O)[C@H](CCC(=O)O)NC(=O)[C@H](CC(C)C)NC(=O)[C@H](Cc3ccc(O)cc3)NC(=O)[C@H](CO)NC(=O)[C@H](CO)NC(=O)[C@@H](NC(=O)[C@H](CC(=O)O)NC(=O)[C@H](CO)NC(=O)[C@@H](NC(=O)[C@H](Cc3ccccc3)NC(=O)[C@@H](NC(=O)CNC(=O)[C@H](CCC(=O)O)NC(=O)CNC(=O)[C@@H](N)Cc3c[nH]cn3)[C@@H](C)O)[C@@H](C)O)C(C)C)[C@@H](C)CC)C(C)C)C(N)=O)C2=O)C(=O)NCCCCCCN)C1=O)C(N)=O)C(C)C (some centres unmarked)	–	Kunming mouse, plasma	subcutaneous, 50 nmol/kg	60 min
CN[C@H](CC(C)C)C(=O)N[C@H]1C(=O)N[C@@H](CC(N)=O)C(=O)N[C@H]2C(=N)N[C@H]3C(=O)N[C@H](C(=O)N[C@H](C(=O)NCCCNC(=N)N)c4cc(O)cc(O)c4-c4cc3ccc4O)[C@H](O)c3ccc(c(Cl)c3)Oc3cc2cc(c3O[C@@H]2O[C@H](CO)[C@@H](O)[C@H](O)[C@H]2O[C@H]2C[C@](C)(NCc3ccc(-c4ccc(Cl)cc4)cc3)[C@H](O)[C@H](C)O2)Oc2ccc(cc2Cl)[C@H]1O	–	mouse	intravenous, 25 mg/kg	30 min
CC[C@H](C)[C@H](NC(=O)[C@H](CCCN)NC(=O)[C@H](CCCNC(=N)N)NC(=O)[C@@H]1CCCN1C(=O)[C@@H]1CCCN1C(=O)[C@H](CCCNC(=N)N)NC(=O)[C@@H]1CCCN1C(=O)[C@H](CCCNC(=N)N)NC(=O)[C@@H]1CCCN1C(=O)[C@H](CC(C)C)NC(=O)[C@H](Cc1ccc(O)cc1)NC(=O)[C@@H]1CCCN1C(=O)[C@@H]1CCCN1C(=O)[C@H](CCCCN)NC(=O)[C@H](CC(=O)O)NC(=O)[C@@H](N)C(C)C)C(=O)N[C@@H](Cc1ccc(O)cc1)C(=O)N[C@@H](CC(N)=O)C(=O)N[C@@H](CCCN)C(N)=O	competitive ELISA	mouse CD-1, female, plasma	subcutaneous, 4.34 µmol/kg	15 min
CCCCCCCCCCCCCCCC(=O)NCCCCCCNC(=O)C(CCCCNC(=O)CCN1C(=O)CC(SC[C@H](NC(=O)[C@H](CCCNC(=N)N)NC(=O)CNC(=O)[C@H](CCCCN)NC(=O)[C@@H](NC(=O)[C@H](CC(C)C)NC(=O)[C@H](Cc2c[nH]c3ccccc23)NC(=O)[C@H](C)NC(=O)[C@@H](NC(=O)[C@H](Cc2ccccc2)NC(=O)[C@H](CCC(=O)O)NC(=O)[C@H](CCCCN)NC(=O)[C@H](C)NC(=O)[C@H](C)NC(=O)[C@H](CCC(N)=O)NC(=O)CNC(=O)[C@H](CCC(=O)O)NC(=O)[C@H](CC(C)C)NC(=O)[C@H](Cc2ccc(O)cc2)NC(=O)[C@H](CO)NC(=O)[C@H](CO)NC(=O)[C@@H](NC(=O)[C@H](CC(=O)O)NC(=O)[C@H](CO)NC(=O)[C@@H](NC(=O)[C@H](Cc2ccccc2)NC(=O)[C@@H](NC(=O)CNC(=O)[C@H](CCC(=O)O)NC(=O)CNC(=O)[C@@H](N)Cc2c[nH]cn2)[C@@H](C)O)[C@@H](C)O)C(C)C)[C@@H](C)CC)C(C)C)C(N)=O)C1=O)NC(=O)CCN1C(=O)CC(SC[C@H](NC(=O)[C@H](CCCNC(=N)N)NC(=O)CNC(=O)[C@H](CCCCN)NC(=O)[C@@H](NC(=O)[C@H](CC(C)C)NC(=O)[C@H](Cc2c[nH]c3ccccc23)NC(=O)[C@H](C)NC(=O)[C@@H](NC(=O)[C@H](Cc2ccccc2)NC(=O)[C@H](CCC(=O)O)NC(=O)[C@H](CCCCN)NC(=O)[C@H](C)NC(=O)[C@H](C)NC(=O)[C@H](CCC(N)=O)NC(=O)CNC(=O)[C@H](CCC(=O)O)NC(=O)[C@H](CC(C)C)NC(=O)[C@H](Cc2ccc(O)cc2)NC(=O)[C@H](CO)NC(=O)[C@H](CO)NC(=O)[C@@H](NC(=O)[C@H](CC(=O)O)NC(=O)[C@H](CO)NC(=O)[C@@H](NC(=O)[C@H](Cc2ccccc2)NC(=O)[C@@H](NC(=O)CNC(=O)[C@H](CCC(=O)O)NC(=O)CNC(=O)[C@@H](N)Cc2c[nH]cn2)[C@@H](C)O)[C@@H](C)O)C(C)C)[C@@H](C)CC)C(C)C)C(N)=O)C1=O (some centres unmarked)	–	Kunming mouse, plasma	subcutaneous, 50 nmol/kg	198 ± 30 min
Cc1sc2c(c1C)C(c1ccc(Cl)cc1)=N[C@@H](CC(=O)OC(C)(C)C)c1nnc(C)n1-2	–	CD1 mouse, male, plasma	oral, 10 mg/kg	15 min
O=C(c1cc(Cc2n[nH]c(=O)c3ccccc23)ccc1F)N1CC(CNC2CC2)C1	–	ICR mouse, female, plasma	oral, 60 mg/kg	≤ 15 min

A few entries again:
Structure (SMILES)	assay	test system	setting	Tmax
CC(C)C[C@@H]1NC(=O)[C@@H](Cc2c[nH]c3ccccc23)NC(=O)[C@H](CCCNC(=N)N)NC(=O)[C@@H](CCC(=O)O)NC(=O)[C@H](CCC(N)=O)NC(=O)[C@@H](CCC(=O)O)NC(=O)[C@H](CCCNC(=N)N)NC(=O)[C@@H](Cc2c[nH]c3ccccc23)NC1=O	–	C57BL/6 mouse, plasma	subcutaneous, 7.5 mg/kg, acetate buffer pH 4 vehicle	30 min
